Measurements pooled from the literature.
Lines come from different studies, so protocols differ. Numbers after ± are the reported error.

C=Cc1cc(O)cc2nc(-c3ccc(O)c([76Br])c3)oc12 — tissue uptake (female C57BL/6 mouse, ovaries; 1 h, low dose): 0.35 ± 0.03 %ID/g
COc1cc2ccnc(Cc3ccc(O[11CH3])c(OC)c3)c2cc1OC — tissue uptake (Sprague-Dawley rats, kidney; intravenous, 0.5 h): 0.312 ± 0.054 %ID/g
N=C(N)NCc1ccc(C(=O)NCCCC[C@H](NC(=O)N[C@@H](CCC(=O)O)C(=O)O)C(=O)O)cc1[211At] — tissue uptake (SCID mouse, PC-3 xenografts, blood; 14 h): 0.16 ± 0.04 %ID/g
CCNc1cc2[o+]c3cc(NCC)c(C)cc3c(-c3ccccc3C(=O)OCCOCC[18F])c2cc1C — tissue uptake (rat, gut; 30 min): 1.39 ± 0.78 %ID/g
N=C(N)NCc1ccc(C(=O)NCCCC[C@H](NC(=O)CCCCCCC(=O)NCCCC[C@H](NC(=O)N[C@@H](CCC(=O)O)C(=O)O)C(=O)O)C(=O)O)cc1[211At] — tissue uptake (SCID mouse, PC-3 xenografts, thyroid; 21 h): 3.74 ± 1.42 %ID/g
CN[C@](C)(C[18F])C(=O)O — tissue uptake (SCID mouse MDA-MB-468 xenograft, kidney; 60 min post injection): 4.8 ± 0.8 %ID/g
O=C(c1ccc(F)cc1)C1CCN(C2Cc3c(cccc3OCC[18F])CC2O)CC1 (single isomer, unassigned; (-)) — tissue uptake (Sprague-Dawley rat, male, blood; intravenous, dose not given, 120 min): 0.356 ± 0.019 %ID/g
O=C(O)CC[C@H](NC(=O)O[C@@H](CCCCNC(=O)c1ccc([18F])cc1)C(=O)O)C(=O)O — tissue uptake (mouse, PC-3 PIP/flu xenografts, bone; 90 min): 0.79 ± 0.16 %ID/g
COc1cc2ncnc(Oc3cccc(N[11C](=O)Nc4cc(C(C)(C)C(F)(F)F)on4)c3)c2cc1OC — tissue uptake (Balb/c nude mouse, female, A375 melanoma xenograft, muscle; 6.6 MBq, 60 min): 2.63 ± 0.05 %ID/g
N=C(N)NCc1ccc(C(=O)NCCCC[C@H](NC(=O)N[C@@H](CCC(=O)O)C(=O)O)C(=O)O)cc1[131I] — tissue uptake (SCID mouse, PC-3 xenografts, thyroid; 2 h): 0.22 ± 0.05 %ID/g
